Results from different studies.
Numbered parts are unrelated; each lists some results of a single study. Substitutions count along the parent as printed.

Block 1
Target: PABPC1L2, full length, GST fusion (mouse, UniProt A0ABA7IW68)
Technique: RNAcompete
Molecule type: RNA
Matrix: in vitro
Concentration: 20 nM
Notes: 7-mer, probes averaged, single round
Baseline: mean of 7-mers
Reading: higher = stronger binding
Quantity: 7-mer Z-score
GAGCACC: -0.168
AUCGAGC: -0.126
CACUCUA: -0.0881
ACUGUGG: 0.0406
UCUCUCU: -0.335
CCAUCUC: -0.447
CCUGCUC: -0.315
GAUUAUU: -0.199
ACGGUAU: -0.0844

Block 2
Target: Histone acetyltransferase KAT6A, both winged helices, GST fusion (KAT6A, Homo sapiens, UniProt Q92794, residues 1-181)
Technique: protein binding microarray
Molecule type: double-stranded DNA, one strand shown
Matrix: in vitro
Concentration: not given
Notes: 8-mer, flanks averaged, mean of 2 arrays, mostly near background
Baseline: not given
Reading: higher = stronger binding
Quantity: E-score
Target sequence (chain): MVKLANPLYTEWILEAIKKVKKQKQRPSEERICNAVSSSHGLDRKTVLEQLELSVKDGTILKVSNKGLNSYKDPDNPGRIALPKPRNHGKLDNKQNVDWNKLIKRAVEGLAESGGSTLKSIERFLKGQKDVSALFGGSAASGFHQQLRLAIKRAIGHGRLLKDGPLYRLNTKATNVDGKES
ATACGGTC: 0.173
GCCACTCA: -0.0306
AGCCACCT: -0.281
AAGTTGAG: -0.184
GGGCGCAA: 0.211
ATCGCCTC: -0.118
AACCGCTC: 0.203
ATAGTCGG: 0.0884
GCCAGTGA: -0.108
AACATCCC: -0.0467
CTGCTCGA: -0.257
GCCCTGAA: -0.147

Block 3
Target: ABI1, truncated, D143A, DHFR fusion (Arabidopsis thaliana)
Technique: DHFR PCA, deep sequencing
Matrix: yeast
Notes: methotrexate growth selection, single substitutions
With: (+)-ABA 0.39 µM
Baseline: wild-type fitted maximum
Reading: higher = stronger binding
Quantity: relative binding score
Starting sequence: PYL1, truncated, DHFR fusion (Arabidopsis thaliana); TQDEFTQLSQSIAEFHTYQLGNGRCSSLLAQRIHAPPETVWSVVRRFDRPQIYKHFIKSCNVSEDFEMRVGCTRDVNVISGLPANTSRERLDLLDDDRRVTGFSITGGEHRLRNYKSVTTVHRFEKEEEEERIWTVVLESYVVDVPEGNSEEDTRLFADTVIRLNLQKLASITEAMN
E129G: 70.2%
E4P: 24.7%
K126S: 75.9%
P83G: 56.6%
Y115Q: -18.7%
E151T: 27.3%

Other studies, line by line
PhoQ, residues 284 288 289 292 302 303 ASSHFY — fold induction (PhoP, residues 12 14 15 18 19 NQAHL (Escherichia coli, UniProt P23836); Sort-seq, item: YFP reporter; E. coli; PhoQ-PhoP variant library, with: 10 µM Mg2+; baseline: high Mg2+ state, higher = stronger signaling): 1.8
